Measurements of several laboratories.
Every numbered part comes from another study and shows a few of its results, in no order. Changes are numbered by the printed parent chain.

Series 1
Target: Interferon regulatory factor 5, full length, phosphomimetic (IRF5, Homo sapiens, UniProt Q13568-2, residues 1-514, K96S/S451D/S453D/S456D/S462D)
Technique: protein-binding microarray
Molecule type: double-stranded DNA, one strand shown
Sample: in vitro
Tested at: 250 nM
Notes: 60-bp whole probe
Together with: salmon DNA 0.4 mg/ml
Baseline: random background probes
Direction: higher = stronger binding
Constant ends, left off below: GCCTAGCAC … GTCTTGATTCGCTTGACGCTGCTG
With `TTAGATTTCGGGAGTGGATTAGTGCTA` the log fluorescence was 2.73 z-score.
With `CATAGAGATGCCTGTCCTCTGTGCTAG` the log fluorescence was -0.24 z-score.
For `TTAGATTTCCTTATCCTTTAGTGCTAG`, the log fluorescence was 0.826 z-score.
`CTCTGTCCCTGTTTCTACTGGTGCTAG` gave a log fluorescence of 0.668 z-score.
`GACGGACTGGGTATCGGGGCGTGCTAG` has a log fluorescence of -0.114 z-score.
For `TTAGGTATCGACTATCGTTTAGTGCTA`, the log fluorescence was 5.8 z-score.
`TTTTTTTTTTTTTTGGAATGGTGCTAG` gave a log fluorescence of 1.25 z-score.
`GACGGACTGGGGTATCGCGACGTGCTA` has a log fluorescence of -0.665 z-score.
The log fluorescence of `ATTTTAATCACATATACACTGGTGCTA` is reported as 0.76 z-score.
`TTAGGTATCGGGTATCGGGTAGTGCTA` gave a log fluorescence of 4.95 z-score.
`TTAGGTTTCGGAATGGGTTAGTGCTAG` gave a log fluorescence of 7.52 z-score.
`TCATATTTAAGGCTAGGACTGTGCTAG` gave a log fluorescence of -0.0134 z-score.
With `GACGAACTGCTTCTCCTGACGTGCTAG` the log fluorescence was -0.326 z-score.
The log fluorescence of `GTTCAAAGTCCTACGGCTTCGTGCTAG` is reported as -0.419 z-score.
The log fluorescence of `TTAGCTTTCGGGTATCGATTAGTGCTA` is reported as 10.4 z-score.
For `GACGACTTCGGGACTGGAGACGTGCTA`, the log fluorescence was -0.253 z-score.

Series 2
Target: ABI1, truncated, D143A, DHFR fusion (Arabidopsis thaliana)
Technique: DHFR PCA, deep sequencing
Sample: yeast
Notes: methotrexate growth selection, single substitutions
Together with: (+)-ABA 58 µM
Baseline: wild-type fitted maximum
Direction: higher = stronger binding
Starting sequence: PYL1, truncated, DHFR fusion (Arabidopsis thaliana); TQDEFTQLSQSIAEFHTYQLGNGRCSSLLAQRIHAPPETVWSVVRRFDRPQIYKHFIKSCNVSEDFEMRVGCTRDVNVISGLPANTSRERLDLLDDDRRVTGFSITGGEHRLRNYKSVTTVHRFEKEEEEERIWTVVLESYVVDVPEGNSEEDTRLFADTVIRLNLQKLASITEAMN
`E127F`: “relative binding score” 95.7%.
`F157I`: “relative binding score” 58.4%.
Under “relative binding score”, `A30V` is recorded as 88%.
For `T135E`, “relative binding score” read -6.21%.
For `G23Y`, “relative binding score” read 60.8%.
For `K58T`, “relative binding score” read 71.9%.
For `A175N`, “relative binding score” read 79.1%.
For `I105A`, “relative binding score” read 29.9%.
`T160F`: “relative binding score” 84.4%.
`N77M` — result for “relative binding score”: 85.4%.
`L156I` — result for “relative binding score”: 80.6%.
For `I105H`, “relative binding score” read -9.17%.
`N149R` — result for “relative binding score”: 16.2%.
`N165W` — result for “relative binding score”: 3.71%.
`F15N`: “relative binding score” 69.3%.

Series 3
Target: Sal-like protein 4, full length isoform A (SALL4, Homo sapiens, UniProt Q9UJQ4, residues 1-1053)
Chain of UniProt Q9UJQ4 (whole entry, looked up): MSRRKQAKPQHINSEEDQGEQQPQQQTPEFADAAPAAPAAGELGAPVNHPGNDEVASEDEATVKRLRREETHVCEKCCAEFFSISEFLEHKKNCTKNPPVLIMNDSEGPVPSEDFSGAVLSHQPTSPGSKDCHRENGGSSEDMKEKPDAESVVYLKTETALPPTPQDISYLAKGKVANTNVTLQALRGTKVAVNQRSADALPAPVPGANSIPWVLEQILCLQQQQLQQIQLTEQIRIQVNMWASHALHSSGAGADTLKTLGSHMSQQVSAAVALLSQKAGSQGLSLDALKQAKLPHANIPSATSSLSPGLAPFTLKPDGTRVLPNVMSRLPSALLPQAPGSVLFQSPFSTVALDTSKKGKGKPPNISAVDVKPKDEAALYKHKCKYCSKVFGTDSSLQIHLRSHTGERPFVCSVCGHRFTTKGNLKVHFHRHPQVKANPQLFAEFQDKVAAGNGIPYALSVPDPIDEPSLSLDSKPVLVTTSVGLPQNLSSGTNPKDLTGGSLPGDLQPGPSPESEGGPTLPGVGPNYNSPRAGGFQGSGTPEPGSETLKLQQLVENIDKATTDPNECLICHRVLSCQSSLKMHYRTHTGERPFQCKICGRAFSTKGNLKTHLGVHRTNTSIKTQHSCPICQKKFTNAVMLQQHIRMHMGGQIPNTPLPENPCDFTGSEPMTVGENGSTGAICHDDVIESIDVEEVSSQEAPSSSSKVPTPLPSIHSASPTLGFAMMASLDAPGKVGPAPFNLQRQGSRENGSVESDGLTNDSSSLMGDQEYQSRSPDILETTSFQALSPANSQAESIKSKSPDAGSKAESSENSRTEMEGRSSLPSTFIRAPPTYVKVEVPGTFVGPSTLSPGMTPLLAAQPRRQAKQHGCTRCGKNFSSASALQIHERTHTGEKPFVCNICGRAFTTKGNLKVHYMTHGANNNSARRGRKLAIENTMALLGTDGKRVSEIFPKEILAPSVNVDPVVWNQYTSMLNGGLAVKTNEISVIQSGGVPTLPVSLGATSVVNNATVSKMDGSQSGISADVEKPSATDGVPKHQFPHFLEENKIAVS
Technique: universal PBM
Molecule type: double-stranded DNA, one strand shown
Sample: in vitro
Tested at: 600 nM
Notes: 8-mer, flanks averaged, mean of replicates
Direction: higher = stronger binding
`CGAGTCAA` gave an E-score of -0.0412.
`GGACAGTA` has an E-score of 0.12.
For `ACAGTTCT`, the E-score was 0.0755.
With `CAATATTC` the E-score was 0.332.
`CGGACAGC` has an E-score of -0.147.
With `ATGAGCAG` the E-score was 0.0538.
The E-score of `AGCCATCA` is reported as -0.046.
With `CAAGCCTA` the E-score was -0.0209.
The E-score of `AACTGCAG` is reported as -0.0791.
With `AAATATCG` the E-score was 0.298.
`CATGGCTC` gave an E-score of -0.156.
For `AGGACAAA`, the E-score was 0.163.
With `AATCCCAG` the E-score was -0.0268.
The E-score of `AATCATAG` is reported as 0.327.
`AATTGGAG` has an E-score of 0.101.
With `CGAACTAG` the E-score was 0.0146.
The E-score of `GCGGTAGC` is reported as -0.187.
`AGGATCCA` has an E-score of -0.169.
`AGGCACAC` gave an E-score of -0.0926.
The E-score of `AAACCAAT` is reported as 0.198.
`AATACAAA` has an E-score of 0.35.
The E-score of `AGACATTA` is reported as 0.139.
For `ACCGATTC`, the E-score was -0.154.
With `GGCCTGAA` the E-score was -0.262.
With `AGAGCAAG` the E-score was -0.116.

Series 4
Target: CCNB1, cyclin fold, Cln2 fusion (human)
Technique: yeast growth competition, sequencing
Sample: yeast
Notes: weak parent motif
Baseline: not given
Direction: higher = stronger binding
Starting sequence: ORC1 docking peptide (human); PRARKRLELGNLG
For `PRARKRLEGGNLG [L9G]`, “normalised enrichment score” read 0.555.
Under “normalised enrichment score”, `PRARKRLGLGNLG [E8G]` is recorded as -0.101.
`PRARKRLELGTLG [N11T]`: “normalised enrichment score” 1.02.
For `PRQRKRLELGNLG [A3Q]`, “normalised enrichment score” read 1.21.
`PRARQRLELGNLG [K5Q]`: “normalised enrichment score” 0.305.
For `QRARKRLELGNLG [P1Q]`, “normalised enrichment score” read 0.711.
`PRARKRLEIGNLG [L9I]`: “normalised enrichment score” 1.09.
For `PRAEKRLELGNLG [R4E]`, “normalised enrichment score” read 0.587.
Under “normalised enrichment score”, `PRARKRLEWGNLG [L9W]` is recorded as 0.328.
For `PSARKRLELGNLG [R2S]`, “normalised enrichment score” read 0.298.
`YRARKRLELGNLG [P1Y]`: “normalised enrichment score” 0.666.
Under “normalised enrichment score”, `PRARKYLELGNLG [R6Y]` is recorded as 0.656.
Under “normalised enrichment score”, `LRARKRLELGNLG [P1L]` is recorded as 0.701.
`PRARKRLELWNLG [G10W]`: “normalised enrichment score” 1.38.
`PRARKRLELDNLG [G10D]` — result for “normalised enrichment score”: 1.31.
`PRWRKRLELGNLG [A3W]`: “normalised enrichment score” 0.186.
Under “normalised enrichment score”, `PRARKRLELGSLG [N11S]` is recorded as 0.463.

Series 5
Target: Ras GTPase-activating protein-binding protein 1, full length (G3BP1, Homo sapiens, UniProt Q13283)
Chain of UniProt Q13283 (whole entry, looked up): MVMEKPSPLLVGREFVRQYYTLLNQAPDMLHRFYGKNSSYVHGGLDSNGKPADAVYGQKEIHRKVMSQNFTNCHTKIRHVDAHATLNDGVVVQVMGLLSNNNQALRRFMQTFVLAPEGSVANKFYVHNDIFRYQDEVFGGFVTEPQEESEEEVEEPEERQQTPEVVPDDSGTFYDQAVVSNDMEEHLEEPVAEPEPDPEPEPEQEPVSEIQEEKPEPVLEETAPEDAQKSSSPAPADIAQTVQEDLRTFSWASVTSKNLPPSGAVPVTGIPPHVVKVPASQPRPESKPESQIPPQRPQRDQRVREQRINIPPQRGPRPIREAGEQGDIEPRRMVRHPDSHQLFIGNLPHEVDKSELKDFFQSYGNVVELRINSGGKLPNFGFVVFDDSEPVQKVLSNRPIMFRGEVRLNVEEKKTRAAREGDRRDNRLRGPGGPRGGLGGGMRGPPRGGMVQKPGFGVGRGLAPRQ
Technique: RNA Bind-n-Seq
Molecule type: RNA
Sample: in vitro
Tested at: 200 nM
Notes: whole 134-nt RNA, ends assumed
Together with: 150 mM KCl
Baseline: input library
Direction: higher = stronger binding
`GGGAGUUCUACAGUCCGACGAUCUCCUGUGCUACACAUCGUAUGUACCGAAUCGGCCCCCCGGGGCCCCCCGGCCCCCCGGGGAAAGUAUUAUGUUACGCCGUUCGGAUCUGCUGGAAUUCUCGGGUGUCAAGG` gave a log2 enrichment of -0.414.
`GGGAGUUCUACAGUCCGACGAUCCUGUGCUACACAUCGUAUGUACCGAAUCGGGGAAAAAAAGGGAAAAAAAGGAAAAAAAGGGAAAGUAUUAUGUUACGCCGUUCGGAUCUGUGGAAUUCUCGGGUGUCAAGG` gave a log2 enrichment of -0.806.
For `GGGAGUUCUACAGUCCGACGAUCUAACUUUAGAGGAGGAUCUGAUGGAUAUGGCAGUGGACGUGGAUGUGGGGAUGGCUAUAAUGGGUAUGGAGGAGGACCUGGAGGUGGCAAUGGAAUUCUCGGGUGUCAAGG`, the log2 enrichment was 0.509.
For `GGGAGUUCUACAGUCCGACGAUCAAGUCCUGUGCUACACAUCGUAUGUACCGAAUCGGGGAGGGGAGGGGAAAAAGGGGAAAGUAUUAUGUUACGCCGUUCGGAUCUGCACUUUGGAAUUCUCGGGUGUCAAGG`, the log2 enrichment was 0.676.
`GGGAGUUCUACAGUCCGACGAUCUCCUGUGCUACACAUCGUAUGUACCGAAUCGGAAAAAAAGGUUUUUUUGGAAAAAAAGGAAAGUAUUAUGUUACGCCGUUCGGAUCUGCAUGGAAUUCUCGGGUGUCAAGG` has a log2 enrichment of -0.961.
The log2 enrichment of `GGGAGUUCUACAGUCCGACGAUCAGUCCUGUGCUACACAUCGUAUGUACCGAAUCGGAAAAAGGUUUUUUUGGUUUUUGGAAAGUAUUAUGUUACGCCGUUCGGAUCUGCACUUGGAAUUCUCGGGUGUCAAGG` is reported as -1.88.
`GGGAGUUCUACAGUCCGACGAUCUAACUUUAGAGGAGGAUCUGAUGGAUAUGGCCGUGGACGUGGAUUUGGGGAUGGCUAUAAUGGGUAUGGAGGAGGACCUGGAGGUGGCAAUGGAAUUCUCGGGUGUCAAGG` gave a log2 enrichment of 0.383.
With `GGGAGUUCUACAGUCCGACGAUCUCCUGUGCUACACAUCGUAUGUACCGAAUCGGGGAAAGGGGUUUUUGGGGUUUUUGGGGAAAGUAUUAUGUUACGCCGUUCGGAUCUGCAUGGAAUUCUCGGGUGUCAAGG` the log2 enrichment was 0.795.
For `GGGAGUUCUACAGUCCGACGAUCUGGAUCAAGAGGAAGUAAAAAGAAUUACCAGUCACAGGCUGACAUUCCCAUUCGGUCUCCCUUUGGUAUUGUGAAAGCAUCCUGGCUACCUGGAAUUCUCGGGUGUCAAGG`, the log2 enrichment was -0.11.
`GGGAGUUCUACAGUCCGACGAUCAGUCCUGUGCUACACAUCGUAUGUACCGAAUCAAACCCCCCCAAAUUUAAACCCAAAAAAGUAUUAUGUUACGCCGUUCGGAUCUGCACUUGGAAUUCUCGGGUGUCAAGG` gave a log2 enrichment of -0.252.

Excerpt of the above (series 5):
`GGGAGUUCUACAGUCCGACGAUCUCCUGUGCUACACAUCGUAUGUACCGAAUCGGCCCCCCGGGGCCCCCCGGCCCCCCGGGGAAAGUAUUAUGUUACGCCGUUCGGAUCUGCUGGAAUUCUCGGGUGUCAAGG` gave a log2 enrichment of -0.414.
`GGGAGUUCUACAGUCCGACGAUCCUGUGCUACACAUCGUAUGUACCGAAUCGGGGAAAAAAAGGGAAAAAAAGGAAAAAAAGGGAAAGUAUUAUGUUACGCCGUUCGGAUCUGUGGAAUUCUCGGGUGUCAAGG` gave a log2 enrichment of -0.806.
`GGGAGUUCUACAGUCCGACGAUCAGUCCUGUGCUACACAUCGUAUGUACCGAAUCAAACCCCCCCAAAUUUAAACCCAAAAAAGUAUUAUGUUACGCCGUUCGGAUCUGCACUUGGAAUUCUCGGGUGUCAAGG` gave a log2 enrichment of -0.252.
For `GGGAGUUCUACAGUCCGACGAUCUAACUUUAGAGGAGGAUCUGAUGGAUAUGGCAGUGGACGUGGAUGUGGGGAUGGCUAUAAUGGGUAUGGAGGAGGACCUGGAGGUGGCAAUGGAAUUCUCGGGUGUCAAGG`, the log2 enrichment was 0.509.
The log2 enrichment of `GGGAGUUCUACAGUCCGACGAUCAGUCCUGUGCUACACAUCGUAUGUACCGAAUCGGAAAAAGGUUUUUUUGGUUUUUGGAAAGUAUUAUGUUACGCCGUUCGGAUCUGCACUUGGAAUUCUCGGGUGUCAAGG` is reported as -1.88.
`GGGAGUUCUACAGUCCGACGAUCUCCUGUGCUACACAUCGUAUGUACCGAAUCGGAAAAAAAGGUUUUUUUGGAAAAAAAGGAAAGUAUUAUGUUACGCCGUUCGGAUCUGCAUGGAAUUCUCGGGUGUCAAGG` has a log2 enrichment of -0.961.
`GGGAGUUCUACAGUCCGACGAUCUAACUUUAGAGGAGGAUCUGAUGGAUAUGGCCGUGGACGUGGAUUUGGGGAUGGCUAUAAUGGGUAUGGAGGAGGACCUGGAGGUGGCAAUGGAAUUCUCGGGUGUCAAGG` gave a log2 enrichment of 0.383.
With `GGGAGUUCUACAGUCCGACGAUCUCCUGUGCUACACAUCGUAUGUACCGAAUCGGGGAAAGGGGUUUUUGGGGUUUUUGGGGAAAGUAUUAUGUUACGCCGUUCGGAUCUGCAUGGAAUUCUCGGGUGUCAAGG` the log2 enrichment was 0.795.
For `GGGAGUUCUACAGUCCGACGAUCUGGAUCAAGAGGAAGUAAAAAGAAUUACCAGUCACAGGCUGACAUUCCCAUUCGGUCUCCCUUUGGUAUUGUGAAAGCAUCCUGGCUACCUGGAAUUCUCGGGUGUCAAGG`, the log2 enrichment was -0.11.
For `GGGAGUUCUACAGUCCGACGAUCAAGUCCUGUGCUACACAUCGUAUGUACCGAAUCGGGGAGGGGAGGGGAAAAAGGGGAAAGUAUUAUGUUACGCCGUUCGGAUCUGCACUUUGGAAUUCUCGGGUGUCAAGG`, the log2 enrichment was 0.676.
